Experimental data gathered from unrelated publications.
Lines come from different studies, so protocols differ. Several values in a cell are separate wells, animals, samples, runs or records. Numbers after ± are the reported error.
pyrD: Dihydroorotate dehydrogenase (quinone) (pyrD, Acinetobacter baumannii, UniProt B7GZW7)
SLC6A6 G62A: Sodium- and chloride-dependent taurine transporter (SLC6A6, Homo sapiens, UniProt P31641, G62A)
Kir3.1/Kir3.4: Kir3.1/Kir3.4 (Homo sapiens, UniProt P48544+P48549)
AKR1B1: Aldo-keto reductase family 1 member B1 (AKR1B1, Homo sapiens, UniProt P15121)
T1: riboswitch RNA yjdF aptamer domain (Bacillus subtilis); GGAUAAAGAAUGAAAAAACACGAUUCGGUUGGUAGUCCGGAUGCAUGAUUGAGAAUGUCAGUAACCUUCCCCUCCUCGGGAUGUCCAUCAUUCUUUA
T2: riboswitch RNA A38C (Bacillus); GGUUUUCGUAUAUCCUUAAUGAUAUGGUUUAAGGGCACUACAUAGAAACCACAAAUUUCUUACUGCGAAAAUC
T3: ssDNA, aptamer; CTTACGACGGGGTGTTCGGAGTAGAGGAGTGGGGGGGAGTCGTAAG

The calcium influx of `Nc1ncnc2c1ncn2[C@@H]1O[C@H](COP(=O)(O)CP(=O)(O)OP(=O)(O)O)[C@@H](O)[C@H]1O` is reported as 94.3% and 83.7% and 88.7% (P2X purinoceptor 1 (P2RX1, Homo sapiens, UniProt P51575, R139A); calcium influx; 1 µM; baseline: ionomycin response).
The remaining binding of `C=CC(=O)N1CCC(COCC(=O)N2CCN(c3nc(-c4cnc(N)nc4C(F)F)nc(N4CCOC[C@@H]4C)n3)CC2)CC1` is reported as 58% (GRK4 (Homo sapiens, UniProt P32298); KINOMEscan; 1 µM).
`CSc1nc2nc(C)cc(Nc3ccc(C(F)(F)F)cc3)n2n1` gave a robust Z-score of 26.2 (pyrD; enzyme activity, inhibitor, colorimetric HTS, item: DCIP reduction; 3 µM; direction not given).
Under inhibition type, `Nc1nc(=O)n([C@H]2C[C@H](O)[C@@H](CO)O2)cc1CNCC[C@H](N)C(=O)O` is recorded as “inhibited” (DNMT1 (Homo sapiens, UniProt P26358); radiometric [3H]-SAM; concentration not given, with: SAM, poly(dI-dC)).
For `N#Cc1ccc2[nH]cc(CCCCN3CCN(c4ccc5oc(C(N)=O)cc5c4)CC3)c2c1`, the Hill coefficient was 1.2 ± 0.17 (SLC6A4 (Homo sapiens, UniProt P31645, E493N); [3H]5-HT uptake, inhibitor; COS-7).
With `NC/C(=C\F)COc1cccc(Cn2c(=S)[nH]c(=O)c3[nH]cnc32)c1` the H2O2 concentration was -0.318 µM (Myeloperoxidase (MPO, Homo sapiens, UniProt P05164); H2O2 consumption, inhibitor, H2O2 electrode; 0.25 µM, 0.3 s).
For `COc1cc(F)cc2c(N3CCN4c5ccccc5OC[C@H]4C3)c(C#N)nnc12`, the maximal response was 84% (Grm7 (Rattus norvegicus, UniProt P35400); positive allosteric modulator; cell-based; with: L-AP4 EC20; baseline: L-AP4 maximum).
`NCCCC(=O)O`: “normalised MST signal” -0.0624 (SLC6A6 G62A; binding, microscale thermophoresis; 122 nM, room temperature, with: 50 nM labelled protein; higher = more binding).
For `COc1cc(-c2cc(C(C)=O)n3ccccc23)c(OC)cc1Cn1ccnc1`, the ΔTm was 1.4 °C (KAT2B (Homo sapiens, UniProt Q92831)).
With `O=C(NO)c1ccc(CN2CCCCc3ccccc32)c(F)c1` the inhibition was 21.9% (HRH3 (Homo sapiens, UniProt Q9Y5N1); radioligand binding, radioligand displacement; 10 µM, mean of replicates).
`O=C(O)C1CCCNC1` (centres unmarked): “normalised MST signal” -0.0668 (SLC6A6 G62A; binding, microscale thermophoresis; 244 nM, room temperature, with: 50 nM labelled protein; higher = more binding).
Under activity, `Cc1nn(C2CCS(=O)(=O)C2)c(C)c1NC(=O)COc1ccc(Cl)cc1Cl` (centres unmarked) is recorded as “inactive” (Kir3.1/Kir3.4; activator, thallium flux; HEK293; concentration not given).
Under “log2 fold change”, `N#Cc1ccn2c(-c3ccncc3)c(-c3ccc(F)cc3)nc2c1` is recorded as -0.242 (Cyclin-dependent kinase 1 (CDC28, Candida albicans, UniProt P43063); kinase binding, competitor, MIB/MS competition, item: CDC28; Candida albicans cell lysate; 100 nM; baseline: DMSO).
For `CCS(=O)(=O)N1CC(CC#N)(n2cc(-c3ncnc4[nH]ccc34)cn2)C1`, “fraction of accessible fluorescence” read 0.67 (ORM1 (Homo sapiens, UniProt P02763); modified Stern-Volmer; 303 K).
The koff of `O=[N+]([O-])c1cc(C(F)(F)F)ccc1NCc1ccco1` is reported as 2.82 ± 0.16 s⁻¹ (Endothelial PAS domain-containing protein 1, PAS-B domain (EPAS1, Homo sapiens, UniProt Q99814); ZZ-exchange NMR; 25 °C).
`O=c1nc(SCc2cc(F)cc(C(F)(F)F)c2)nc(SCc2ccc3sccc3c2)[nH]1` gave a linear DNA of 0% (TOP2A (Homo sapiens, UniProt P11388); DNA cleavage; 7.8 µM, replicate 2).
The log IC50 of `Cc1ccc(/C=C2\SC(=O)N(CC(=O)c3ccc([N+](=O)[O-])cc3)C2=O)cc1` is reported as 2.75 log nM (AKR1B1; enzyme activity, inhibitor).
For `COCCC(=O)N1CCC(Oc2ccccc2)C1` (centres unmarked), the fold enrichment was 1 (Protein transport protein Sec31A (SEC31A, Homo sapiens, UniProt O94979); binding, affinity selection mass spectrometry; baseline: other proteins in batch).
For `CC(C)C[C@H](N)C(=O)Nc1ccc2ccccc2c1`, the Km was 1 µM (rat aminopeptidase III; substrate).
For `COc1ccc2c(c[n+](C)c3c4cc5c(cc4ccc23)OCO5)c1OC`, the Kd was 0.43 nM (T1, riboswitch RNA yjdF aptamer domain (Bacillus subtilis); fluorescence titration).
The ΔH of `Nc1ncnc2c1ncn2[C@@H]1O[C@H](COP(=O)(O)OP(=O)(O)O)[C@@H](O)[C@H]1O` is reported as -2.48 kcal/mol (GUK1 (Homo sapiens, UniProt Q16774); ITC; molar ratio 0.4975).
For `O=C(COP(=O)(O)O)[C@@H](O)[C@H](O)[C@H](O)COP(=O)(O)O`, “thermal stability ratio” read 0.662 (DNAJA1 (Homo sapiens, UniProt P31689); thermal proteome profiling; HepG2 cell lysate; concentration not given, 57 over 37 °C, mean; baseline: compound over control).
Under “plasma membrane localization”, `CC(=C/C(=O)O)/C=C/C=C(\C)C1C=C2C(C)(C)CCCC2(C)O1` (centres unmarked) is recorded as 0.89 (Rhodopsin (RHO, Homo sapiens, UniProt P08100, T17M); immunostaining, item: opsin; COS-7 transfected; 20.00 µM, unit not given; baseline: surface over total stained cells).
The TΔS of `CC(NC(=O)CCCc1ccc2ccc3cccc4ccc1c2c34)C(=O)NO` (centres unmarked) is reported as 5.3 kcal/mol (HDAC8 (Homo sapiens, UniProt Q9BY41); ITC; Tris buffer; pH 7.5).
The normalized current of `Nc1ncnc2c1ncn2[C@@H]1O[C@H](COP(=O)(O)OP(=O)(O)OP(=O)(O)O)[C@@H](O)[C@H]1O` is reported as 1 and 0.993 and 0.997 (P2X purinoceptor 7 (P2rx7, Rattus norvegicus, UniProt Q64663, I214A); ion current, agonist, two-electrode voltage clamp; Xenopus laevis oocytes; 2700 µM; baseline: highest concentration response).
The Kd of `Nc1nc2[nH]cnc2c(=O)[nH]1` is reported as 1900 nM (T2, riboswitch RNA A38C (Bacillus); ITC; KCl 50 mM).
For `NS(=O)(=O)NCCNc1nonc1C(=NO)Nc1ccc(F)c(Br)c1`, the ΔTi was 4 °C (IDO1 (Homo sapiens, UniProt P14902); thermal stability, nanoDSF; 50 µM, 1% DMSO, no DTT, with: SHG1-labelled protein).
The Emax of `CCc1cc(NC(=O)COc2cccc(Cl)c2Cl)n(C2CCOCC2)n1` is reported as 61% (Kir3.1/Kir3.4; thallium flux, activator; HEK293; baseline: standard compound).
With `CN(C)Cc1cc(Nc2ccc(S(F)(F)(F)(F)F)cc2)n2nc(C(C)(F)F)nc2n1` the robust Z-score was 17.8 (pyrD; enzyme activity, inhibitor, colorimetric HTS, item: DCIP reduction; 3 µM; direction not given).
With `CC1=NN(c2ccc(F)cc2)C(=O)C1=NNc1ccc(S(N)(=O)=O)cc1` the inhibition was 32.3 ± 0.00178% (bovine α-glucosidase; enzyme activity, inhibitor, glucose oxidase; 10 µg/mL, with: maltose).
`CC(=O)Nc1ccc(O)cc1` — result for “chemical shift change”: 0.094 ppm (BRD4 (Homo sapiens, UniProt O60885); 19F NMR, item: tyrosine 119; 188 µM; baseline: free protein).
For `Nc1ncnc2c1ncn2[C@@H]1O[C@H](C[C@@H](N)CC[C@H](N)C(=O)O)[C@@H](O)[C@H]1O`, the -TΔS was 2.74 kcal/mol (O-methyltransferase (Sorghum bicolor, UniProt A0A1B6PFV1); ITC; with: PTR+).
The robust Z-score of `Cc1nc2ncnn2c(Nc2ccc(C(F)(F)F)cc2)c1C` is reported as 15.5 (pyrD; enzyme activity, inhibitor, colorimetric HTS, item: DCIP reduction; 3 µM; direction not given).
`O=C(O)CC12CC3CC(CC(C3)C1)C2` gave a ligand efficiency of 0.38 kcal/mol/heavy atom (DNA topoisomerase 2-binding protein 1, BRCT7-8 domains (TOPBP1, Homo sapiens, UniProt Q92547); binding, NMR HSQC titration; BRCT7-8 domains).
The kcat of `N[C@@H](Cc1ccc(O)cc1)C(=O)Nc1ccc2ccccc2c1` is reported as 3.43 s⁻¹ (rat aminopeptidase III; substrate; MW 110 kDa).
Under “koff fast phase”, `CC[C@H](C)[C@@H]1NC(=O)[C@H](C)NC(=O)[C@H]([C@@H](C)CC)NC(=O)[C@H](CCC(N)=O)NC(=O)[C@H](C)NC(=O)[C@H](CCCNC(=N)N)NC(=O)[C@H](C(C)C)NC(=O)[C@H](CC(C)C)NC(=O)[C@H](CCC(=O)O)NC(=O)[C@H](CCCNC(=N)N)NC(=O)CNC(=O)[C@@H](NC(=O)[C@H](CC(C)C)NC(=O)[C@H](CCCCN)NC(=O)[C@@H](NC(=O)[C@@H](NC(=O)[C@H](CCC(=O)O)NC(=O)[C@H](CCC(=O)O)NC(=O)[C@H](CCSC)NC(=O)[C@H](Cc2c[nH]c3ccccc23)NC(=O)[C@H](CO)NC(=O)[C@@H](N)CC(=O)O)C(C)C)[C@@H](C)CC)CSSC[C@@H]2NC(=O)[C@@H](NC(=O)[C@H](CCCCN)NC(=O)[C@H](CC(N)=O)NC(=O)[C@H](C)NC(=O)[C@H](CC(C)C)NC(=O)[C@H](C)NC(=O)[C@H](CO)NC(=O)[C@H](Cc3ccc(O)cc3)NC(=O)[C@H](CC(C)C)NC(=O)[C@H](CCC(N)=O)NC(=O)c3ccc(-c4c5ccc(=[N+](C)C)cc-5oc5cc(N(C)C)ccc45)c(C(=O)[O-])c3)CSSC[C@H](NC(=O)CNC(=O)[C@H](C(C)C)NC(=O)[C@H](Cc3c[nH]cn3)NC2=O)C(=O)N[C@@H]([C@@H](C)O)C(=O)N[C@@H](CCCCN)C(=O)N[C@@H](CCCNC(=N)N)C(=O)N[C@@H](CO)C(=O)N[C@@H](CC(C)C)C(=O)N[C@@H](C)C(=O)N[C@@H](CCCNC(=N)N)C(=O)N[C@@H](Cc2ccccc2)C(=O)N[C@H](C(=O)O)CSSC[C@@H](C(=O)NCC(=O)N[C@@H](CCSC)C(=O)N[C@@H](CO)C(=O)N[C@H](C(=O)N[C@@H](Cc2c[nH]c3ccccc23)C(=O)N[C@@H](CO)C(=O)O)[C@@H](C)O)NC1=O` is recorded as 0.00685 s⁻¹ (Relaxin receptor 1 (RXFP1, Homo sapiens, UniProt Q9HBX9, F76A/Y80A); NanoBRET dissociation; infinite dilution, with: 100 nM relaxin).
The Hill slope of `O=C1S/C(=C\c2ccc(F)cc2)C(=O)N1Cc1nc2ccccc2s1` is reported as -0.452 (AKR1B1; enzyme activity, inhibitor).
`Cc1nn(C2CCS(=O)(=O)C2)c(C)c1NC(=O)COc1ccc(C(F)(F)F)cc1C(F)(F)F` (centres unmarked): activity “inactive” (Kir3.1/Kir3.4; activator, thallium flux; HEK293; concentration not given).
`Nc1nc2c(ncn2[C@@H]2O[C@H](COP(=O)(O)O)[C@@H](O)[C@H]2O)c(=O)[nH]1` has a reaction rate of 0.342 s⁻¹ and -2.9 s⁻¹ and -0.763 s⁻¹ (GUK1 (Homo sapiens, UniProt Q16774, S37A); enzyme activity, NADH-coupled; 7.812 µM).
With `CN(C)C(=O)C(CCN1CCC(O)(c2ccc(Cl)cc2)CC1)(c1ccccc1)c1ccccc1` the Hill coefficient was 1.33 ± 0.67 (Calcium-activated potassium channel subunit alpha-1, with LRRC26 γ1 subunit (KCNMA1, Homo sapiens, UniProt Q12791); BK channel conductance, inside-out patch clamp; BKα/γ1, Vm -10 mV, nominally Ca2+-free).
`Cc1cc(Nc2ccc(C(F)(F)F)cc2)n2ccnc2n1` gave a robust Z-score of 25.2 (pyrD; enzyme activity, inhibitor, colorimetric HTS, item: DCIP reduction; 3 µM; direction not given).
`CCCCC[C@H](O)/C=C/[C@H]1[C@H](O)CC(=O)[C@@H]1C/C=C\CCCC(=O)O` gave an Emax of 115 ± 4.96% (PTGER1 (Homo sapiens, UniProt P34995, R66A); IP1 accumulation, agonist; AD293; 1 h, EP1 R66A mutant).
`Nc1ncnc2c1ncn2[C@@H]1O[C@H](COP(=O)(O)OP(=O)(O)OP(=O)(O)O)[C@@H](O)[C@H]1O` has a Kd of 788 nM (T3, ssDNA, aptamer; ITC).
Under photoaffinity labelling, `CC1(C)CC[C@]2(C(=O)O)CC[C@]3(C)C(=CC[C@@H]4[C@@]5(C)C[C@@H](O)[C@H](OC(=O)/C=C/c6ccc(O)cc6)C(C)(C)[C@@H]5CC[C@]43C)[C@@H]2C1` (relative stereo) is recorded as “increased” (Presenilin-1, N-terminal fragment (PSEN1, Homo sapiens, UniProt P49768); S2 subsite probe binding, competitor, item: PS1 labelling; HeLa membranes).
